Measured values collected from several papers.
Each line is one published result; not all experiments were run side by side. Values joined by “and” are separate records of one study, mostly repeats; a detail may differ. ± marks the error that the study gave. ≈ marks a conversion by molar mass, not a printed value.
UniProt Q06124, sequence (whole entry, looked up): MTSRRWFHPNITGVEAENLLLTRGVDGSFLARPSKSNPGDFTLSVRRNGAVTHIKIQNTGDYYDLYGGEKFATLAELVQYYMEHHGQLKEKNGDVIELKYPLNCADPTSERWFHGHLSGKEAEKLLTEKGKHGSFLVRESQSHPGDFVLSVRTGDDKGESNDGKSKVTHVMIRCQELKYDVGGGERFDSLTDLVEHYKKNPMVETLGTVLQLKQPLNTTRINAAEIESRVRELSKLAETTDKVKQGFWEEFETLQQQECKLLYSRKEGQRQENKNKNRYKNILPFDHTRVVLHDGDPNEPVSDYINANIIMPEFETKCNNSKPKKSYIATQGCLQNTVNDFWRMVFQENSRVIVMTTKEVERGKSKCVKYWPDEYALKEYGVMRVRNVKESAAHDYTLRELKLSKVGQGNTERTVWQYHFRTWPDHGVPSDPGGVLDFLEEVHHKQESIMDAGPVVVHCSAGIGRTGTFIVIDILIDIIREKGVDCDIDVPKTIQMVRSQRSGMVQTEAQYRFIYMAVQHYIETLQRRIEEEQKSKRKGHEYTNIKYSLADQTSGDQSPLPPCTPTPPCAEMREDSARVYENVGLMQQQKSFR

SMILES	target or system	test	test system	conditions	quantity	value
COCCOc1cnc2ccn([C@H](C)c3nnc4c(F)cc(-c5cnn(C)c5)cn34)c(=O)c2c1	–	–	patients, plasma	oral, 150 mg once daily, day 1	half-life	6.6 h
Cc1ccc(-c2cc(-c3ccc(OCc4ccccc4)cc3)nc3c(N=Nc4ccc(F)cc4)c(N)nn23)cc1	Escherichia coli	–	ATCC 25955	–	MBC/MIC ratio	4
CCc1nn(C)c2nc(-c3ccc(C(=O)O)c(F)c3)nc(NCc3ccc(F)cc3)c12	Cryptosporidium parvum	parasite growth, high-content microscopy	HCT-8, Iowa	concentration not given	anti-parasitic activity	not toxic
COc1cc(-c2nc3ccccc3c(=O)n2Nc2ccc([N+](=O)[O-])cc2[N+](=O)[O-])ccc1OCc1cn(CC(=O)Nc2cccc(C)c2)nn1	mushroom tyrosinase	enzyme activity	–	40 µM, added: L-DOPA	inhibition	68.6 ± 10.3%
O=C(O)c1cn(Cc2ccc(C(F)(F)F)cc2)c2ccc(Oc3ccccc3)cc2c1=O	Jurkat	–	–	72 h	CC50	9.02 ± 0.28 µM
C=CS(=O)(=O)Oc1ccccc1	PTPN11 (Homo sapiens, UniProt Q06124)	enzyme activity, covalent inhibitor	–	added: pNPP substrate	kinact/KI	3.52 M⁻¹ s⁻¹ and 3.68 M⁻¹ s⁻¹
CCc1nn(C)c2nc(-c3ccc(C(=O)O)nc3)nc(NCc3ccc(F)cc3)c12	Cryptosporidium parvum	parasite growth, high-content microscopy	HCT-8, Iowa	concentration not given	anti-parasitic activity	not toxic
Nc1nn2c(-c3ccco3)cc(-c3ccc(OCc4ccccc4)cc3)nc2c1N=Nc1ccc(F)cc1	Escherichia coli	–	ATCC 25955	–	MBC	15.6 µg/mL (≈ 30.9 µM)
CN1[C@@H]2CC[C@H]1C[C@@H](OC(c1ccccc1)c1ccccc1)C2	Campylobacter concisus	–	–	1 other congeners	congener production	increased
O=C(Nc1cc(-c2ccc(Cl)cc2)[nH]n1)C1CCCCC1	AMPK	enzyme activity	–	10 µM	remaining activity	86%
CCc1nn(C)c2nc(-c3ccc4c(c3)COC4=O)nc(NCc3ccc(F)cc3)c12	Cryptosporidium parvum	parasite growth, high-content microscopy	HCT-8, Iowa	concentration not given	anti-parasitic activity	inactive
COc1ccc(N=Nc2c(N)nn3c(-c4ccc(C)cc4)cc(-c4ccc(OCc5ccccc5)cc4)nc23)cc1	Escherichia coli	–	ATCC 25955	–	MBC	31.3 µg/mL (≈ 57.9 µM)
CCOc1c([C@H](C)n2nc(C)c3c(N)ncnc32)cc(Cl)c(F)c1[C@@H]1CNC(=O)C1	–	–	patients with B-cell malignancies, plasma	oral, 20 mg, day 15, monotherapy	half-life geometric mean	8.9 h
CCc1nn(C)c2nc(C3=CCC(C(=O)O)CC3)nc(NCc3ccc(F)cc3)c12 (stereo not drawn)	Cryptosporidium parvum	parasite growth, high-content microscopy	HCT-8, Iowa	concentration not given	anti-parasitic activity	not toxic
O=C(NCc1ccc(OC(F)(F)F)cc1)c1cn(Cc2ccc(F)cc2)c2ccc(Oc3ccccc3)cc2c1=O	MDA-MB-231	–	–	72 h	CC50	17.8 ± 0.62 µM
Cc1ccc(N=Nc2c(N)nn3c(-c4ccco4)cc(-c4ccc(OCc5ccccc5)cc4)nc23)cc1	Escherichia coli	–	ATCC 25955	–	MBC	62.5 µg/mL (≈ 125 µM)
COc1cc(/C=N/NC(=S)N/N=C/c2ccc(C)cc2)ccc1Oc1ccnc2cc(Cl)ccc12	AKR1B1 (Homo sapiens, UniProt P15121)	enzyme activity, inhibitor, item: NADPH	–	added: DL-glyceraldehyde substrate	IC50	6.45 ± 0.17 µg/mL (≈ 12.8 µM)
CCOC(=O)C(=CNc1ccc(Oc2ccccc2)cc1)C(=O)OCC	MDA-MB-231	–	–	72 h	CC50	76.3 ± 8.57 µM

Repeated from above:
SMILES	target or system	test	test system	conditions	quantity	value
COc1cc(-c2nc3ccccc3c(=O)n2Nc2ccc([N+](=O)[O-])cc2[N+](=O)[O-])ccc1OCc1cn(CC(=O)Nc2cccc(C)c2)nn1	mushroom tyrosinase	enzyme activity	–	40 µM, added: L-DOPA	inhibition	68.6 ± 10.3%
O=C(O)c1cn(Cc2ccc(C(F)(F)F)cc2)c2ccc(Oc3ccccc3)cc2c1=O	Jurkat	–	–	72 h	CC50	9.02 ± 0.28 µM
